Results collected from several papers.
Parts stem from different laboratories: compare values within a part only.
Chain of UniProt Q8TBX8 (whole entry, looked up): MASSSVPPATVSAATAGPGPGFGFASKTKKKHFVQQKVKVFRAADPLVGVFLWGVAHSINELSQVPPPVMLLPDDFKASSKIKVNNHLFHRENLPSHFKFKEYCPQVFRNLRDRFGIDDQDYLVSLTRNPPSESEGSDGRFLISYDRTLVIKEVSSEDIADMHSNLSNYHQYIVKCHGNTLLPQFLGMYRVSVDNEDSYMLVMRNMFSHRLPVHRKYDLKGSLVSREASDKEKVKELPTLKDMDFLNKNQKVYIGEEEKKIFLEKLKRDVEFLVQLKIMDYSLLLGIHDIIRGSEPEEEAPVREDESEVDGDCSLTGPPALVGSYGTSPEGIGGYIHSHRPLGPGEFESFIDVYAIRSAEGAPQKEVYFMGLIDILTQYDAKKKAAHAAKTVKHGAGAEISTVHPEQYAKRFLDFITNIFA
Chain of UniProt P36897 (whole entry, looked up): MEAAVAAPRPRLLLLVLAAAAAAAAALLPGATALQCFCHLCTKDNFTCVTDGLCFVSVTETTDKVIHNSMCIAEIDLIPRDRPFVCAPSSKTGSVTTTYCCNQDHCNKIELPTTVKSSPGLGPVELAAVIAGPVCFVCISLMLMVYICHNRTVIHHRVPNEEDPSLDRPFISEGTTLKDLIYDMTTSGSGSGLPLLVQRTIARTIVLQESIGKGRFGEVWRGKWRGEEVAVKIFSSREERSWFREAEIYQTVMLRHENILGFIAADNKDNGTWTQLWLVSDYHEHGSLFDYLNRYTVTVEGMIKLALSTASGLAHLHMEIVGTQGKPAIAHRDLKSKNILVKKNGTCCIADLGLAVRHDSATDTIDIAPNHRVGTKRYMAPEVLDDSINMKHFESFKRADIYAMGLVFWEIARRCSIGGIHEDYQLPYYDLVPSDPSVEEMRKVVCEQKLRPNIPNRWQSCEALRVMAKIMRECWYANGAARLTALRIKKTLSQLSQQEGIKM
Chain of UniProt P22607 (whole entry, looked up): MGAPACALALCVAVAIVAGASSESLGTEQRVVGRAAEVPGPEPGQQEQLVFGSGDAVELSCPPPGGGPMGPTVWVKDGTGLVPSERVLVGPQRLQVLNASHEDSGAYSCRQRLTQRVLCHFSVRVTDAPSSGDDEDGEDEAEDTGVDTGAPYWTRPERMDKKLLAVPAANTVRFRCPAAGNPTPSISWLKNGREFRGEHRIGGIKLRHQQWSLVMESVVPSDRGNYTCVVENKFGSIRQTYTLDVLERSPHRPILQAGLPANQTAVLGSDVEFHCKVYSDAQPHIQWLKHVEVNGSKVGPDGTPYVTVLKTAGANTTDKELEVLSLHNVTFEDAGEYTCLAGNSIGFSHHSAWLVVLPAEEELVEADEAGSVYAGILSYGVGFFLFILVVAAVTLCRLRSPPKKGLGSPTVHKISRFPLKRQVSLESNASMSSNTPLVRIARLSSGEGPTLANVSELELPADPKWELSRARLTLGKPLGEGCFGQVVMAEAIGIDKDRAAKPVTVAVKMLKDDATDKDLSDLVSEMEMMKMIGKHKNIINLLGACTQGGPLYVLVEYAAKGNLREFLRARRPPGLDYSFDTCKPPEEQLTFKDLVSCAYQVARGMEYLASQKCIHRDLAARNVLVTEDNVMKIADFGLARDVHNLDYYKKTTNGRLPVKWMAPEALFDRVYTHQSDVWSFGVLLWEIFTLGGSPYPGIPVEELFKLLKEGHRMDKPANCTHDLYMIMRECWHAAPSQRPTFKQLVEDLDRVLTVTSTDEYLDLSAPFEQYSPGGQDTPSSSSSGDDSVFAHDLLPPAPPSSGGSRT
Chain of UniProt Q8IWQ3 (whole entry, looked up): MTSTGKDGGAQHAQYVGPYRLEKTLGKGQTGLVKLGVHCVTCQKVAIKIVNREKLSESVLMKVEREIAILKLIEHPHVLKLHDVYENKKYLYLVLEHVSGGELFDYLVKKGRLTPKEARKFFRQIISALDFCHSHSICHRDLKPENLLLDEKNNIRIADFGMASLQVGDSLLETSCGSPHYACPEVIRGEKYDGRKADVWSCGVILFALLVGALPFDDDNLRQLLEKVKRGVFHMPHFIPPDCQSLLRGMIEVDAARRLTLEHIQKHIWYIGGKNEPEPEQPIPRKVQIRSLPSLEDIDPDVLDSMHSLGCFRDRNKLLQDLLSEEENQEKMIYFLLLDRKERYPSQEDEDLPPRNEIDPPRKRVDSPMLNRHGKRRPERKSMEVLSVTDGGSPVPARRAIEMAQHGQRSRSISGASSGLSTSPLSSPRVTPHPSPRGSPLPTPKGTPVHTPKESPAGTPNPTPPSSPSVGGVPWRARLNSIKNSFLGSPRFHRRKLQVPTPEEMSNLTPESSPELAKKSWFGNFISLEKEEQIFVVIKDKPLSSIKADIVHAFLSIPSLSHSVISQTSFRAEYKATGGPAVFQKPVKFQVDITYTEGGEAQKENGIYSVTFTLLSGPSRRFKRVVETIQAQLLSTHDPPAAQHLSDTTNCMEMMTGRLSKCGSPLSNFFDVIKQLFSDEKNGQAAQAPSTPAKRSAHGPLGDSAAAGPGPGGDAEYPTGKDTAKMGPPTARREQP
Chain of UniProt Q13131 (whole entry, looked up): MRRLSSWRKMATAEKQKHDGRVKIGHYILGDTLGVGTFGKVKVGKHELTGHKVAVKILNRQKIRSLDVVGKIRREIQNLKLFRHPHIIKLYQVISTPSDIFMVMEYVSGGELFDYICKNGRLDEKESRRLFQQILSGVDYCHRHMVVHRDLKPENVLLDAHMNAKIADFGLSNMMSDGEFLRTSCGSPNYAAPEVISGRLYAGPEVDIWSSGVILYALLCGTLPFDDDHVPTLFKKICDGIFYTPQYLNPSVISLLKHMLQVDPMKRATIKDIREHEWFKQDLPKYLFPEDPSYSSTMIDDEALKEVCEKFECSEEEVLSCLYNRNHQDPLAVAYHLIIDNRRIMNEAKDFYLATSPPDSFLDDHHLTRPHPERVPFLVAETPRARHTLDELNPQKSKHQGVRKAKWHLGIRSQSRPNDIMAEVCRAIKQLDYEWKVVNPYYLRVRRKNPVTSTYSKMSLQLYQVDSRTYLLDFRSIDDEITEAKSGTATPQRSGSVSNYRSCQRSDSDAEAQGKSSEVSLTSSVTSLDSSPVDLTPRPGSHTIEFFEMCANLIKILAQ
Chain of UniProt Q9NY57 (whole entry, looked up): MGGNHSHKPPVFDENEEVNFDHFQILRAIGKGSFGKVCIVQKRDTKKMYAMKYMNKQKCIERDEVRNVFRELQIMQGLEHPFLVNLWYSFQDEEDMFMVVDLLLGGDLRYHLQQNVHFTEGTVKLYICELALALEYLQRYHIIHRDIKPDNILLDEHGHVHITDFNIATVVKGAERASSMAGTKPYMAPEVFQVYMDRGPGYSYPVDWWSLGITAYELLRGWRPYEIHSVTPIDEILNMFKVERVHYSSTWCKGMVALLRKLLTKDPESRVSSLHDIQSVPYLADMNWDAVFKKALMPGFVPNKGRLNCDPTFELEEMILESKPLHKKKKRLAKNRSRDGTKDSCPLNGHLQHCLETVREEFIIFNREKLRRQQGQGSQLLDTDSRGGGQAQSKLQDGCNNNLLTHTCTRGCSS

Sample 1
Target: Insulin-like growth factor 1 receptor (IGF1R, Homo sapiens, UniProt P08069)
Chain of UniProt P08069 (whole entry, looked up): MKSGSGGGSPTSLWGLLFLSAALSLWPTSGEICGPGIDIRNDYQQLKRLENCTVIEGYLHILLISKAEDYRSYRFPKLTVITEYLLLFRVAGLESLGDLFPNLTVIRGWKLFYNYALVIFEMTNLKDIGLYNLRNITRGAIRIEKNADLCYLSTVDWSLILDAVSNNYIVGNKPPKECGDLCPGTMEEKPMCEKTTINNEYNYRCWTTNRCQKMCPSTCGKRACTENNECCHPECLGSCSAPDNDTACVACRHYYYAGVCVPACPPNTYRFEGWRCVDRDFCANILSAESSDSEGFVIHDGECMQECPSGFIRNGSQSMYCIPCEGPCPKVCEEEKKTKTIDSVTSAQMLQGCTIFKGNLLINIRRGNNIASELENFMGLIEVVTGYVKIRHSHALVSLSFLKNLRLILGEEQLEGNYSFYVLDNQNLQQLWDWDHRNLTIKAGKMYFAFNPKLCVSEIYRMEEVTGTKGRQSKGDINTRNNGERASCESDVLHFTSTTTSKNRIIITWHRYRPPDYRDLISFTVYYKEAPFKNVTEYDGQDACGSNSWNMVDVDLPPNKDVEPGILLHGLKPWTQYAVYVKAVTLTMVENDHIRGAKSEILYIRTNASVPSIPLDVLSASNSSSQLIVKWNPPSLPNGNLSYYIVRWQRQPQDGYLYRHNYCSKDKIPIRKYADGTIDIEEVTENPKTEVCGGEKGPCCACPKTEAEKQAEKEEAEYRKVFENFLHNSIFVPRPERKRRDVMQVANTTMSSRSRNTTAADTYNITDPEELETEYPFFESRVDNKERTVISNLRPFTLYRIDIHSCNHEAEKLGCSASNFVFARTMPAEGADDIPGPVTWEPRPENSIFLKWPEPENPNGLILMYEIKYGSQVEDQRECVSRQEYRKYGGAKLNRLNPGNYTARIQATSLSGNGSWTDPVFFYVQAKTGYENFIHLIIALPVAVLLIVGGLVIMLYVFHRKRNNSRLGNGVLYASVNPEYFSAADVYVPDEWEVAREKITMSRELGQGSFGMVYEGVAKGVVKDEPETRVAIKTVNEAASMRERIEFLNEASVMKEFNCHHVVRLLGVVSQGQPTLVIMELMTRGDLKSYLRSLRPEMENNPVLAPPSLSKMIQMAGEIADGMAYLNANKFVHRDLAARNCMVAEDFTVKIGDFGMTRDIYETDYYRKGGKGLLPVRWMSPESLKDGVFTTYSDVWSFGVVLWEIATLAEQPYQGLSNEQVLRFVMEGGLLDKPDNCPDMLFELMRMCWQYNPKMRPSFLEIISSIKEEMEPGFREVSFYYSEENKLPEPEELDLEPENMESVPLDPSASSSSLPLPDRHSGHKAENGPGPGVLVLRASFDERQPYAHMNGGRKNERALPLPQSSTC
Observed: enzyme activity
Action: inhibitor
Tested at: 0.5 µM
Reference: control
| Compound | remaining activity [%] |
| --- | --- |
| O=C1C(Cl)=C(N2C(=O)CCC2=O)C(=O)c2ccccc21 | 107 |
| CCN(CC)CCNC(=O)c1c(C)[nH]c(/C=C2\C(=O)Nc3ccc(F)cc32)c1C | 62.6 |
| CCN(CC)C(=O)c1ccc(Nc2nc(OCC3CCCCC3)c3[nH]cnc3n2)cc1 | 28.4 |
| O=C(NC(NC(=S)Nc1ccc(F)c([N+](=O)[O-])c1)C(Cl)(Cl)Cl)C(c1ccccc1)c1ccccc1 (stereo not shown) | 93.7 |
| CCOc1nc(NC(=O)Cc2cc(OC)ccc2OC)cc(N)c1C#N | 105 |
| C[C@@H]1CCN(C(=O)CC#N)C[C@@H]1N(C)c1ncnc2[nH]ccc12 | 93.1 |
| COc1cc2c(cc1OC)-c1[nH]nc(Nc3cccc(F)c3)c1C2 | 93.9 |
| Cc1nc2cc3nc(-c4cccs4)cnc3cc2n1C | 96.4 |
| Nc1cccc(-c2cc3c(Oc4cccc(O)c4)ncnc3[nH]2)c1 | 99.5 |
| N#C/C(=C\c1ccc(O)c(O)c1)C(=O)NCc1ccccc1 | 85.1 |
| c1ccc(-c2cnc(Nc3ccc(OCCN4CCCC4)cc3)s2)cc1 | 112 |
| Cn1nc2c3c(cccc31)C(=O)c1ccccc1-2 | 95.9 |
| COc1cc2ncnc(Nc3ccc(O)c(Br)c3)c2cc1OC | 104 |
| O=c1cc(-c2cccc3c2Sc2ccccc2S3)oc(N2CCOCC2)c1 | 98.2 |
| CCN(CC)CCNC(=O)c1c(C)[nH]c(/C=C2\C(=O)Nc3ccc(Cl)cc32)c1C | 35.2 |
| c1ccc(-c2[nH]ncc2-c2ccnc3ccccc23)nc1 | 102 |
| Ic1cccc(CSc2nnc(-c3ccncc3)o2)c1 | 99.1 |
| COc1cc2ncnc(Nc3cccc(Cl)c3)c2cc1OC | 75.9 |
| Cc1cn(-c2cc(NC(=O)c3ccc(C)c(Nc4nccc(-c5cccnc5)n4)c3)cc(C(F)(F)F)c2)cn1 | 88.4 |
| O=C(Nc1cccc(Nc2nccc(Nc3cccc(C(F)(F)F)c3)n2)c1)C1CC1 | 95.7 |
| Cc1cc2ncc(-c3ccccc3)nc2cc1C | 86.8 |
| CN([C@@H](Cc1ccc(OS(=O)(=O)c2cccc3cnccc23)cc1)C(=O)N1CCN(c2ccccc2)CC1)S(=O)(=O)c1cccc2cnccc12 | 105 |
| O=C1c2ccccc2-c2n[nH]c3cccc1c23 | 94.9 |

Sample 2
Compound: C[C@@]1(Cc2ccc(C#N)cc2)C(=O)N(c2cc(Cl)cc(Cl)c2)c2ncc(C(=O)NC3(c4nc(C5CCC5)no4)CC3)n21
Observed: cell-free assay
Technique: competition with immobilised ligand
Tested at: 1 µM
| target | remaining binding [%] |
| --- | --- |
| BRSK2 (Homo sapiens, UniProt Q8IWQ3) | 100 |
| PDGFRA (Homo sapiens, UniProt P16234) | 100 |
| Mast/stem cell growth factor receptor Kit, autoinhibited (KIT, Homo sapiens, UniProt P10721) | 100 |
| MUSK (Homo sapiens, UniProt O15146) | 100 |
| PIP4K2C (Homo sapiens, UniProt Q8TBX8) | 100 |
| CAMK2G (Homo sapiens, UniProt Q13555) | 100 |
| CDKL2 (Homo sapiens, UniProt Q92772) | 100 |
| STK32B (Homo sapiens, UniProt Q9NY57) | 100 |
| FGFR3 (Homo sapiens, UniProt P22607) | 100 |
| WNK1 (Homo sapiens, UniProt Q9H4A3) | 99 |
| MAPK1 (Homo sapiens, UniProt P28482) | 100 |
| PRKAA1 (Homo sapiens, UniProt Q13131) | 100 |
| LRRK2 (Homo sapiens, UniProt Q5S007) | 93 |
| RIOK1 (Homo sapiens, UniProt Q9BRS2) | 100 |
| Tyrosine-protein kinase ABL1, phosphorylated (ABL1, Homo sapiens, UniProt P00519, H396P) | 96 |
| TGFBR1 (Homo sapiens, UniProt P36897) | 100 |
| NEK2 (Homo sapiens, UniProt P51955) | 83 |
| PRKCI (Homo sapiens, UniProt P41743) | 87 |
| NUAK1 (Homo sapiens, UniProt O60285) | 100 |
| TRPM6 (Homo sapiens, UniProt Q9BX84) | 0 |
| MYLK3 (Homo sapiens, UniProt Q32MK0) | 87 |

Sample 3
Sample: hydrocarbon/water
| SMILES | logD |
| --- | --- |
| CC(C)C[C@@H]1NC(=O)CN(Cc2ccc3c(c2)OCO3)C(=O)[C@H](C)NC(=O)[C@H](CC(C)C)N(C)C(=O)[C@H]2CCCN2C(=O)[C@H](C)NC(=O)CN(CC2CCOCC2)C(=O)[C@H](C)NC(=O)[C@H](CC(C)C)N(C)C(=O)[C@H]2CCCN2C1=O | 0.658 |
| CC(C)CC1NC(=O)CN(CC2CCCCC2)C(=O)C2CCCN2C(=O)C(CC(C)C)NC(=O)C(C)N(C)C(=O)C(CC(C)C)NC(=O)CN(Cc2ccc3c(c2)OCO3)C(=O)C2CCCN2C(=O)C(C)NC(=O)C(C)N(C)C1=O (stereo not shown) | 3.11 |
| CCCN1CC(=O)N[C@@H](CC2CCCCC2)C(=O)N2CCC[C@@H]2C(=O)N(C)[C@@H](C)C(=O)N[C@@H](CC2CCCCC2)C(=O)N(C)[C@@H](C)C(=O)N[C@@H](CC(C)C)C(=O)N(C)Cc2cn(nn2)CC(=O)N[C@@H](C2CCCCC2)C1=O | 2.43 |
| CCN1CC(=O)NC(CC(C)C)C(=O)N(C)C(C)C(=O)NC(CC(C)C)C(=O)N2CCCC2C(=O)N(CC2CCOCC2)CC(=O)NC(CC(C)C)C(=O)N(C)C(C)C(=O)NC(C)C(=O)N2CCCC2C1=O (stereo not shown) | 0.455 |
| CCCCCN1CC(=O)N[C@@H](C)C(=O)N2CCC[C@@H]2C(=O)N(C)[C@@H](CC(C)C)C(=O)N[C@@H](C)C(=O)N(Cc2ccc3c(c2)OCO3)CC(=O)N[C@@H](CC(C)C)C(=O)N2CCC[C@@H]2C(=O)N(C)[C@@H](CC(C)C)C(=O)N[C@@H](C)C1=O | 2.16 |
| CCC[C@@H]1NC(=O)[C@H](C)N(C)C(=O)[C@H](CC(C)C)NC(=O)Cn2cc(nn2)CN(C)C(=O)[C@H](CC(C)C)NC(=O)[C@H](C)N(C)C(=O)[C@H](CC(C)C)NC(=O)CN(CCC)C(=O)[C@H]2CCCN2C1=O | -0.493 |
| CCN1CC(=O)NC(CC(C)C)C(=O)N(C)C(C)C(=O)NC(CC(C)C)C(=O)N2CCCC2C(=O)N(CC2CCOCC2)CC(=O)NC(CC(C)C)C(=O)N(C)C(C)C(=O)NC(Cc2ccccc2)C(=O)N2CCCC2C1=O (stereo not shown) | 1.78 |
| CCC[C@H]1C(=O)N[C@@H](CC2CCCCC2)C(=O)N(C)[C@@H](C)C(=O)N[C@@H](CC(C)C)C(=O)N(C)Cc2cn(nn2)CC(=O)N[C@@H](C2CCCCC2)C(=O)N(C)[C@@H](C)C(=O)N[C@@H](CC2CCCCC2)C(=O)N2CCC[C@@H]2C(=O)N1C | 2.8 |
| CCC[C@H]1NC(=O)CSC[C@@H](C(=O)OCC)N(C)C(=O)[C@H](CC(C)C)NC(=O)[C@@H](C)N(C)C(=O)[C@H](CC(C)C)NC(=O)[C@H](C)N(C)C(=O)[C@@H]2CCCN2C(=O)[C@H](CC(C)C)NC(=O)CN(C)C1=O | -0.307 |
| CCC[C@@H]1NC(=O)[C@H](C)N(C)C(=O)[C@H](CC(C)C)NC(=O)Cn2cc(nn2)CN(C)C(=O)[C@H](CC(C)C)NC(=O)[C@H](C)N(C)C(=O)[C@H](CC2CCCCC2)NC(=O)[C@H](CCC)N(C)C(=O)[C@H]2CCCN2C1=O | 1.21 |
| CCC[C@@H]1NC(=O)CN(CCC)C(=O)[C@H](CC(C)C)NC(=O)Cn2cc(nn2)CN(C)C(=O)[C@H](CC(C)C)NC(=O)[C@H](C)N(C)C(=O)[C@H](CC)NC(=O)[C@H](C)N(C)C(=O)[C@H]2CCCN2C1=O | -1.84 |
| CCC[C@H]1C(=O)N[C@@H](CC(C)C)C(=O)N(C)[C@@H](C)C(=O)N[C@@H](CC(C)C)C(=O)N(C)Cc2cn(nn2)CC(=O)N[C@@H](CC(C)C)C(=O)N(C)[C@@H](C)C(=O)N[C@@H](CC(C)C)C(=O)N2CCC[C@@H]2C(=O)N1C | 0.624 |

Sample 4
Species: human
Sample: microsomes or S9
Tested at: 2 µM
Time: 0.5 h
| SMILES | remaining compound |
| --- | --- |
| Oc1cc2c(cc1C(c1ccc(Br)cc1)N1CCOCC1)OCO2 (stereo not shown) | 74.7% |
| CCN(CC)S(=O)(=O)c1ccc(S(=O)(=O)NCc2cccs2)cc1 | 13.8% |
| COc1ccc(/N=C2\C(N3CCCCC3)C3(CCCCC3)C(=O)N2c2ccc(Cl)cc2)cc1 (stereo not shown) | 57.5% |
| Nc1nn(Cc2ccc(F)cc2Cl)cc1Cl | 96.9% |
| CCOC(=O)Nc1ccc(Br)c2ccc(OCc3ccccc3)c(CCCO)c12 | 70.2% |
| Cc1n[nH]c(C)c1Sc1ccccc1-n1cnnc1 | 84.9% |
| CC(=O)CCS(=O)(=O)c1ccc(-c2ccc(S(=O)(=O)CCC(C)=O)cc2)cc1 | 39.3% |
| COc1cc2nc(OC3CCN(C(=O)OC(C)(C)C)CC3)nc(Nc3ccc(S(C)(=O)=O)cc3F)c2cc1OC | 2.69% |
| CCOc1cc(C#N)ccc1OCc1nc(-c2cccs2)no1 | 61.5% |
| Cc1cc(C)c(CNC(C)CCC(C)C)c(C)c1CO (stereo not shown) | 48.3% |
| COc1c(-c2ccccc2)oc2ccccc2c1=O | 37.4% |
| CC1=CC(=O)c2ccccc2C1=O | > 99% |
| Cc1csc(C2=C(O)CN(CCC(c3ccccc3)c3ccccc3)C2=N)n1 | 0.761% |
| CCCc1cc(=O)n2ncc(-c3ccc(Cl)cc3)c2[nH]1 | 89.5% |

For quick reference, copied from above (sample 2):
| target | remaining binding [%] |
| --- | --- |
| Mast/stem cell growth factor receptor Kit, autoinhibited (KIT, Homo sapiens, UniProt P10721) | 100 |
| MUSK (Homo sapiens, UniProt O15146) | 100 |
| PIP4K2C (Homo sapiens, UniProt Q8TBX8) | 100 |
| CAMK2G (Homo sapiens, UniProt Q13555) | 100 |
| CDKL2 (Homo sapiens, UniProt Q92772) | 100 |
| STK32B (Homo sapiens, UniProt Q9NY57) | 100 |
| FGFR3 (Homo sapiens, UniProt P22607) | 100 |
| WNK1 (Homo sapiens, UniProt Q9H4A3) | 99 |
| MAPK1 (Homo sapiens, UniProt P28482) | 100 |
| PRKAA1 (Homo sapiens, UniProt Q13131) | 100 |
